Experimental data of several laboratories.
Compare with care: the assays were run in different laboratories. ± marks the error that the study gave.

CC(C)[C@](O)(c1ccc2cc(OC(F)F)c(OC(F)F)cc2c1)c1c[nH]nn1
terminal half-life (noncompartmental analysis; human patients, plasma; oral, dose not given): 396 min

C=CC(=O)Nc1cc(Nc2ncc(C(=O)OC(C)C)c(-c3cn(C)c4ccccc34)n2)c(OC)cc1N(C)CCN(C)C
terminal half-life (human, fasted; oral, 20 mg single dose, geometric mean): 1090 min

O=C(Nc1nc2cccc(-c3ccc(CN4CCS(=O)(=O)CC4)cc3)n2n1)C1CC1
terminal half-life (human male; oral, 450 mg once daily, steady state, mean): 425 min

C[C@H]1CN(C2COC2)CCN1c1ccc(Nc2cc(-c3ccnc(N4CCn5c(cc6c5CC(C)(C)C6)C4=O)c3CO)cn(C)c2=O)nc1
terminal half-life (healthy human, both sexes, plasma; oral, 100 mg, together with: itraconazole oral solution 200 mg, steady state): 954 ± 181 min

CC(C)(Sc1ccncc1-c1ccc(C#N)c2ccccc12)C(=O)O
terminal half-life (humans, male, normal renal function, fasted, plasma; oral, 15 mg): 780 min

C=C(C)[C@@H]1CC[C@]2(NCCN3CCS(=O)(=O)CC3)CC[C@]3(C)[C@H](CC[C@@H]4[C@@]5(C)CC=C(C6=CC[C@@](CF)(C(=O)O)CC6)C(C)(C)[C@@H]5CC[C@]43C)[C@@H]12
terminal half-life (human; oral, 100 mg once daily, day 14, multiple ascending dose): 1700 min

CN(C)[C@@H](CCOc1cccc2ccccc12)c1ccccc1
terminal half-life (healthy male humans, plasma; oral, 60 mg, together with: udenafil 200 mg): 920 ± 307 min

CC[C@H](C)[C@H](NC(=O)[C@H](CC(C)C)NC(=O)[C@H](Cc1c[nH]c2ccccc12)NC(=O)[C@H](C)NC(=O)[C@@H](NC(=O)[C@H](Cc1ccccc1)NC(=O)[C@H](CC(=O)O)NC(=O)[C@H](CCCNC(=N)N)NC(=O)[C@H](C)NC(=O)[C@H](C)NC(=O)[C@H](CC(C)C)NC(=O)[C@H](C)NC(=O)[C@H](CC(=O)O)NC(=O)[C@H](CC(C)C)NC(=O)[C@@H](NC(=O)[C@@H](NC(=O)[C@H](C)NC(=O)[C@H](CC(C)C)NC(=O)[C@H](CCC(=O)O)NC(=O)[C@H](CO)NC(=O)[C@H](CO)NC(=O)[C@H](Cc1ccccc1)NC(=O)[C@@H](NC(=O)CNC(=O)[C@H](CCC(=O)O)NC(=O)CNC(=O)[C@@H](N)Cc1cnc[nH]1)[C@@H](C)O)[C@@H](C)O)[C@@H](C)CC)[C@@H](C)CC)C(=O)N[C@@H](C)C(=O)N[C@H](C(=O)N[C@@H](CCCCN)C(=O)N[C@H](C(=O)N[C@H](C(=O)N[C@@H](CC(=O)O)C(=O)N[C@@H](CCCCN)C(=O)N[C@@H](CCCCN)C(=O)N[C@@H](CCCCN)C(=O)N[C@@H](CCCCN)C(=O)N[C@@H](CCCCN)C(=O)N[C@@H](CCCCN)C(N)=O)[C@@H](C)O)[C@@H](C)CC)[C@@H](C)O
terminal half-life (immunoaffinity LC-MS/MS; healthy human subjects, plasma; intravenous infusion, 1 mg single dose, infused over 15 min): 702 min

COc1cccc(OCCCN)c1-c1cc(Nc2cnc(C#N)cn2)n[nH]1
terminal half-life (noncompartmental analysis; human, plasma; IV infusion, 105 mg/m^2 over 1 h, cycle 1 day 1, geometric mean): 1300 min

COc1cc(Nc2ncc3c(n2)-c2ccc(Cl)cc2C(c2c(F)cccc2OC)=NC3)ccc1C(=O)O
terminal half-life (human, plasma; oral, dose not given, multiple doses): ~1260 min

CCOc1c([C@H](C)n2nc(C)c3c(N)ncnc32)cc(Cl)c(F)c1[C@@H]1CNC(=O)C1
terminal half-life (healthy fasted humans, plasma; oral, 20 mg): 882 ± 216 min

CN1CCN(c2cccc3c2CCN(C(=O)/C=C/c2c(-n4cnnn4)ccc(Cl)c2F)[C@@H]3C(=O)Nc2ccc(C(=O)O)cc2)C(=O)C1
terminal half-life (human; intravenous infusion, 1.5 to 25 mg/h, 2 h infusion): 122 to 296 min

O=C1Nc2ccc(Cl)cc2[C@@](C#CC2CC2)(C(F)(F)F)O1
terminal half-life (healthy human, serum; oral, 400 mg single dose, together with: ezetimibe): 7260 ± 5820 min

CC(C)n1cc(C#N)c2cc(-n3cc(C(=O)O)cn3)ccc21
terminal half-life (healthy male humans; oral, higher single doses): 714 to 798 min

C[C@@H](Nc1cc(F)cc(F)c1)c1cc(C(=O)N(C)C)cc2c(=O)cc(N3CCOCC3)oc12
terminal half-life (human, plasma; oral, single dose, geometric mean): 126 to 372 min

Cn1c(=O)oc2ccc(-c3ccc(C[C@@H](C#N)NC(=O)[C@@H]4CNCCCO4)cc3)cc21
terminal half-life (healthy male human, plasma; oral, repeated once daily): 1560 to 2040 min

Repeated from above:
O=C1Nc2ccc(Cl)cc2[C@@](C#CC2CC2)(C(F)(F)F)O1
terminal half-life (healthy human, serum; oral, 400 mg single dose, together with: ezetimibe): 7260 ± 5820 min

CC(C)n1cc(C#N)c2cc(-n3cc(C(=O)O)cn3)ccc21
terminal half-life (healthy male humans; oral, higher single doses): 714 to 798 min
